Assay results gathered from unrelated publications.
Compare with care: the assays were run in different laboratories. ± gives the spread as reported.
SULT2A1: Sulfotransferase 2A1 (SULT2A1, Homo sapiens, UniProt Q06520)
Chain of UniProt Q06520 (whole entry, looked up): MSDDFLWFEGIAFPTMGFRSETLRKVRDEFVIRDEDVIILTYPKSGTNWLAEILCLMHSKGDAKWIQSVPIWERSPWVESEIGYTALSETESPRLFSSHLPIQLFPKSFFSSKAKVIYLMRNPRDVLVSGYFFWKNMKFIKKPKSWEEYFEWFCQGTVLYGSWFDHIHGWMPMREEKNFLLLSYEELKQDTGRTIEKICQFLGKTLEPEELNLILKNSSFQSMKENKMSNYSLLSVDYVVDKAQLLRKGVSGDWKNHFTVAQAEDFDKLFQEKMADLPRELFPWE
Acy3: N-acyl-aromatic-L-amino acid amidohydrolase (carboxylate-forming) (Acy3, Mus musculus, UniProt Q91XE4)
Chain of UniProt Q91XE4 (whole entry, looked up): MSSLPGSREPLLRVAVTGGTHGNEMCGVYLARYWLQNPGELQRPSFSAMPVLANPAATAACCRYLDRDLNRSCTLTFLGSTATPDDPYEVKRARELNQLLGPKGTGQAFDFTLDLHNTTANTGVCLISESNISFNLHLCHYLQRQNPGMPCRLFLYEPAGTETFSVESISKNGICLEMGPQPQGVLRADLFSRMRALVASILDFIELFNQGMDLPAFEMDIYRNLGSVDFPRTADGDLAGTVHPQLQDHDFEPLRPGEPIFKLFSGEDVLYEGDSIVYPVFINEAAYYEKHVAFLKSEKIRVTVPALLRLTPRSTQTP
Chain of UniProt Q8GBB2 (whole entry, looked up): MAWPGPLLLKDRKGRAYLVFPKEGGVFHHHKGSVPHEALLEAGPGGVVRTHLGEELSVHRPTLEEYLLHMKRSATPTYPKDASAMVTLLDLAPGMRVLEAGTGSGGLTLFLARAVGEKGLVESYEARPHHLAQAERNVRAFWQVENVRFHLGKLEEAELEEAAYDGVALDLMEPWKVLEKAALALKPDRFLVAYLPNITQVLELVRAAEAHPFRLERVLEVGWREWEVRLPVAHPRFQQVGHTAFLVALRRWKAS
Chain of UniProt Q7Z5P4 (whole entry, looked up): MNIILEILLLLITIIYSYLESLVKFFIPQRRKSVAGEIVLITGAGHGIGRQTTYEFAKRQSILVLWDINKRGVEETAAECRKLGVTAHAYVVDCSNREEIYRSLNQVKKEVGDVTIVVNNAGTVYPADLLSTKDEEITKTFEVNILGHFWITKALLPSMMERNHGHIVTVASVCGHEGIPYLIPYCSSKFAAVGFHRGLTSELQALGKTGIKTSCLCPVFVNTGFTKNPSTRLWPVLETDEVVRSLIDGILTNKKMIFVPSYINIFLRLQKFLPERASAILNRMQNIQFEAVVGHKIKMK
Chain of UniProt P28335 (whole entry, looked up): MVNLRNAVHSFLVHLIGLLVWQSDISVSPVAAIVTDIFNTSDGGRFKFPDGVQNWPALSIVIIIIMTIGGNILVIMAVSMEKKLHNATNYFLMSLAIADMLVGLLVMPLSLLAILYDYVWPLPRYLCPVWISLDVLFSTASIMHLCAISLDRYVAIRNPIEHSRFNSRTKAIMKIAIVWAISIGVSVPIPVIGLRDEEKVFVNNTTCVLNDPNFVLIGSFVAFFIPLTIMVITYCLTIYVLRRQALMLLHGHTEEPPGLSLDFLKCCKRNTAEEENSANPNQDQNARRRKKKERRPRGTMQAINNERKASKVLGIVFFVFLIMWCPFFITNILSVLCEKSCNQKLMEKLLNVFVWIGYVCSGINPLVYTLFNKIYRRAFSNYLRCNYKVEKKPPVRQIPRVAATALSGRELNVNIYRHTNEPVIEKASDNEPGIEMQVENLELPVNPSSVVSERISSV
Chain of UniProt P09598 (whole entry, looked up): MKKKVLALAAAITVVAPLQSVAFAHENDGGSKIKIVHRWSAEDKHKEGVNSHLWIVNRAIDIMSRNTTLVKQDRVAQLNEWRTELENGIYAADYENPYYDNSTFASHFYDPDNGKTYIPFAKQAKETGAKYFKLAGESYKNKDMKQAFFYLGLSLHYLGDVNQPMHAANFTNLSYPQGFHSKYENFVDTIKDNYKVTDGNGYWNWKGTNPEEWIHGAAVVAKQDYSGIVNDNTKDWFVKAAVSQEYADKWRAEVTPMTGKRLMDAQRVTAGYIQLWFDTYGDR
Chain of UniProt P08183 (whole entry, looked up): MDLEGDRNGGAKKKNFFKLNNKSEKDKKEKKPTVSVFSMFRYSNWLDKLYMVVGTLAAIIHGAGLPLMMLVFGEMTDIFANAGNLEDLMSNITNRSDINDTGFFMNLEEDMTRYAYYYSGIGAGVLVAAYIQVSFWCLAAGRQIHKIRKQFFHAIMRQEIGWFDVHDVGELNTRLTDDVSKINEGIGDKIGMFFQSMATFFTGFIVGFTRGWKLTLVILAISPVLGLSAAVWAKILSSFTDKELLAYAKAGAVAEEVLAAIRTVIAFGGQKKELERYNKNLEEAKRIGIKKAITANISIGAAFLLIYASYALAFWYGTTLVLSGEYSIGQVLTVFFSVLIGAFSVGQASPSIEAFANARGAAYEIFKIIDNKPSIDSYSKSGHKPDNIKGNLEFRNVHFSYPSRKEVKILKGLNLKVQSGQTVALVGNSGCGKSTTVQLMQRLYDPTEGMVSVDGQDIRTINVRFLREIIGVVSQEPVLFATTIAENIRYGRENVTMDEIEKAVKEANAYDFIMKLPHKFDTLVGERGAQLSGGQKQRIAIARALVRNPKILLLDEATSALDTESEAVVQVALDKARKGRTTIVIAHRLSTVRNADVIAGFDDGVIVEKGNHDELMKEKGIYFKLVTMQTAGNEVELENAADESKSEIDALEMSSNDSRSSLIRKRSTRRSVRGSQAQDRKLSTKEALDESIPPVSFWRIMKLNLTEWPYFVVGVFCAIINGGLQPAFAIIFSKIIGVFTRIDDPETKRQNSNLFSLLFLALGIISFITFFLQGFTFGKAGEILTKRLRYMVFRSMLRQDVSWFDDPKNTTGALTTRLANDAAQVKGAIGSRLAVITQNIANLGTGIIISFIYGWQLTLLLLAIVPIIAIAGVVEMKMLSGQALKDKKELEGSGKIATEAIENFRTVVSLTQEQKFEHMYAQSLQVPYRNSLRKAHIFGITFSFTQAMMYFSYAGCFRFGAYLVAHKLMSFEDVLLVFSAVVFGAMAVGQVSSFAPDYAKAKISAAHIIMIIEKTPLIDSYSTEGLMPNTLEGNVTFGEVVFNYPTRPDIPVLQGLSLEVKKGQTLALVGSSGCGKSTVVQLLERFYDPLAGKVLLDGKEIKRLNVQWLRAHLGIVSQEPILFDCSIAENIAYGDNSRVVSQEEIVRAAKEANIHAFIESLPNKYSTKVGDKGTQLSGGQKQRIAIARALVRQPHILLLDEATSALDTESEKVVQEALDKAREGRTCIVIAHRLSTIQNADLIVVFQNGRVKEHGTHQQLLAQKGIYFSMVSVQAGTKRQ
Chain of UniProt P28223 (whole entry, looked up): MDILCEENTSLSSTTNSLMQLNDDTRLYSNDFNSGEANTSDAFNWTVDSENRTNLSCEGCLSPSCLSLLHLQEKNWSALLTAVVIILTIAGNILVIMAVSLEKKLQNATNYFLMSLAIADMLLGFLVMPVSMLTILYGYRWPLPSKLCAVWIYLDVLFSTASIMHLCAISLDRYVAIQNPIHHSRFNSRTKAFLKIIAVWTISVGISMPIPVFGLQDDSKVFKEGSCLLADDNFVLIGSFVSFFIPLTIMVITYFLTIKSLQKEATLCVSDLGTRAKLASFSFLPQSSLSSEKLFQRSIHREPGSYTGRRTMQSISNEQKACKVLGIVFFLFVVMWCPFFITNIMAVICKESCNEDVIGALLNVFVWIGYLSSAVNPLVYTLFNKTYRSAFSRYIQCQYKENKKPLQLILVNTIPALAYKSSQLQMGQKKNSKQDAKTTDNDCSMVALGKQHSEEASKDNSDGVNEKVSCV

With `Cc1nc2sccn2c(=O)c1CCN1CCC(=C(c2ccc(F)cc2)c2ccc(F)cc2)CC1` the Ki was 0.0048 µM (5-hydroxytryptamine receptor 2C (HTR2C, Homo sapiens, UniProt P28335)).
`Nc1ncnc2c1ncn2[C@@H]1O[C@H](C[C@@H](N)CC[C@H](N)C(=O)O)[C@@H](O)[C@H]1O` gave a Ki of < 2 µM (tRNA (adenine(58)-N(1))-methyltransferase TrmI (trmI, Thermus thermophilus, UniProt Q8GBB2); enzyme activity, inhibitor).
`Oc1c(Cl)cc(-c2ccccc2)c(F)c1Cl` gave a Ki of 259 ± 43.4 µM (SULT2A1; substrate; pH 7.0, 37 °C, together with: PAPS 200 µM).
`CNC(=O)[C@@]12C[C@@H]1[C@@H](n1cnc3c(NC)nc(C#C[c-]4cccc4)nc31)[C@H](O)[C@@H]2O.[Fe+2].c1cc[cH-]c1` gave a Ki of 0.42 µM (5-hydroxytryptamine receptor 2A (HTR2A, Homo sapiens, UniProt P28223); radioligand binding (PDSP)).
The Ki of `Cc1nn(-c2ccccc2)c(=O)c2nocc12` is reported as > 10 µM (NMDA receptor; binding, radioligand displacement; together with: [3H]MK-801).
For `COc1cc(N2CCC(N3CCN(C)CC3)CC2)ccc1Nc1ncc(Cl)c(Nc2ccccc2P(C)(C)=O)n1`, the Ki was 1.65 µM (ATP-dependent translocase ABCB1 (ABCB1, Homo sapiens, UniProt P08183); inhibitor).
For `Nc1c2c(nc3ccccc13)CCCC2`, the Ki was > 10000 µM (Acy3).
With `Cc1nn(-c2cccc([N+](=O)[O-])c2)c(=O)c2nocc12` the Ki was > 10 µM (NMDA receptor; binding, radioligand displacement; together with: [3H]MK-801).
For `Cn1cc2c(C(=O)O)ccc(NS(=O)(=O)c3ccc(OCC4CCC4)c(Cl)c3)c2n1`, the Ki was 0.012 µM (17-beta-hydroxysteroid dehydrogenase 13, isoform D (Homo sapiens, UniProt Q7Z5P4)).
For `Cc1nn(-c2cc(C(F)(F)F)cc(C(F)(F)F)c2)c(=O)c2nocc12`, the Ki was > 10 µM (NMDA receptor; binding, radioligand displacement; together with: [3H]MK-801).
The Ki of `Oc1c(Cl)cc(-c2ccccc2F)cc1Cl` is reported as 77.5 ± 17.9 µM (SULT2A1; substrate; pH 7.0, 37 °C, together with: PAPS 200 µM).
`Cc1ccc(-n2nc(C)c3conc3c2=O)cc1` gave a Ki of > 10 µM (NMDA receptor; binding, radioligand displacement; together with: [3H]MK-801).
`CC12CC3CC(C)(C1)CC(N)(C3)C2` gave a Ki of > 10000 µM (Acy3).
For `Oc1c(Cl)cc(-c2ccccc2)cc1Cl`, the Ki was 221 ± 56.4 µM (SULT2A1; substrate; pH 7.0, 37 °C, together with: PAPS 200 µM).
`S=C(S)OC1CC2CC1C1CCCC21` (stereo not drawn) gave a Ki of 51 µM (Phospholipase C (Bacillus cereus, UniProt P09598); inhibitor, continuous fluorescence; pH 7.4, 37 °C, mole fraction 0.003, together with: Pyro-PtdEtn-BHQ, in PtdCho vesicles, egg).

A few entries again:
`CC12CC3CC(C)(C1)CC(N)(C3)C2` gave a Ki of > 10000 µM (Acy3).
For `Oc1c(Cl)cc(-c2ccccc2)cc1Cl`, the Ki was 221 ± 56.4 µM (SULT2A1; substrate; pH 7.0, 37 °C, together with: PAPS 200 µM).
